Published values gathered from unrelated publications.
Each numbered part is a random draw from the data of one study; scales do not carry over between parts. pKi: −log10 of the molar value.
Chain of UniProt Q96SB4 (whole entry, looked up): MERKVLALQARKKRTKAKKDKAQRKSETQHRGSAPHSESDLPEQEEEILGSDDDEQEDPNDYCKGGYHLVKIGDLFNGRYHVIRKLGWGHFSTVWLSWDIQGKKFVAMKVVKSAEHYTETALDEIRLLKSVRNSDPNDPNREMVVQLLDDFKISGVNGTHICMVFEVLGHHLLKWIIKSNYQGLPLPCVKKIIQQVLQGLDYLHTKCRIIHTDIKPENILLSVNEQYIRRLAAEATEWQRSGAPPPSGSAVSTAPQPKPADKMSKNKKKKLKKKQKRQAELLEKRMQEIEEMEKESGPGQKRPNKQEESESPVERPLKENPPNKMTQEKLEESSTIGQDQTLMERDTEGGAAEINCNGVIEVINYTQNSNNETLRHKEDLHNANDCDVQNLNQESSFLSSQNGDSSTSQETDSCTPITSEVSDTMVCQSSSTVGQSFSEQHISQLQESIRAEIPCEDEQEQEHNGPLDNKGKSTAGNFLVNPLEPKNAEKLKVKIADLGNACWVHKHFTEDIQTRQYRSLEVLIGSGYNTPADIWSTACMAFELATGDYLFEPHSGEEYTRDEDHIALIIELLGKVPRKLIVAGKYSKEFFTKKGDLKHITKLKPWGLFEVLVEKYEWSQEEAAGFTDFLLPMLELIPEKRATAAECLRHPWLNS
Chain of UniProt P08913 (whole entry, looked up): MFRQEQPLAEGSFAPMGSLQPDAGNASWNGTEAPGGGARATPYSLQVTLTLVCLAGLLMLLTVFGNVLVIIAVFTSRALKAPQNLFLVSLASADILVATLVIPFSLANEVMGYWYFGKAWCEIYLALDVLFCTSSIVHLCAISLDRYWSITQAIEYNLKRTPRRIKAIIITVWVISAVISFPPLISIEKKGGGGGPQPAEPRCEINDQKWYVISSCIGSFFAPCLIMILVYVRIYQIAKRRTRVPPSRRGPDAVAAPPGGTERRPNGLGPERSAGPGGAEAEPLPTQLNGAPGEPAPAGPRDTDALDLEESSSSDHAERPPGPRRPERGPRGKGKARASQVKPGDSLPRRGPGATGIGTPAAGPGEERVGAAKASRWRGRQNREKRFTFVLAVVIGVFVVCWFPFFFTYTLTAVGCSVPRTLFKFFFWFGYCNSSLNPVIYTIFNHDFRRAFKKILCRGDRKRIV

Sample 1 — technique: Sort-seq; item: YFP reporter; medium: E. coli; setting: PhoQ-PhoP variant library; with: 10 µM Mg2+; baseline: high Mg2+ state; direction: higher = stronger signaling
Molecule: PhoQ, residues 284 288 289 292 302 303 GASLAW
| target | fold induction |
| --- | --- |
| PhoP, residues 12 14 15 18 19 GMGLL (Escherichia coli, UniProt P23836) | 4.26 |
| PhoP, residues 12 14 15 18 19 QQAYL (Escherichia coli, UniProt P23836) | 13.1 |
| PhoP, residues 12 14 15 18 19 LFHKL (Escherichia coli, UniProt P23836) | 10.7 |

Sample 2 — technique: aptamer microarray, sandwich; form: DNA with 2'F-ANA; medium: in vitro; concentration: 200 nM; with: Cy3 exosite-II aptamer, 400 nM; direction: higher = stronger binding; oligonucleotide: GGTTGGTGTGGTTGG
Target: Prothrombin, mature alpha-thrombin (F2, Homo sapiens, UniProt P00734)
Setting: whole 15-mer aptamer, many near background
| Modification | mean fluorescence intensity [a.u.] |
| --- | --- |
| 2'F-ANA at 2 3 4 6 8 9 11 12 | 657 |
| 2'F-ANA at 3 4 5 8 9 15 | 105 |
| 2'F-ANA at 1 2 3 8 10 13 14 15 | 50.5 |
| 2'F-ANA at 3 5 6 9 10 12 15 | 78 |
| 2'F-ANA at 2 3 4 5 6 10 12 13 | 56.4 |
| 2'F-ANA at 3 6 8 11 12 14 | 644 |
| 2'F-ANA at 1 3 5 8 9 11 15 | 61.4 |
| 2'F-ANA at 3 4 5 6 7 8 9 15 | 94.5 |

Other studies, line by line
| Molecule | target or system | test | test system | setting | how to read | endpoint | result |
| --- | --- | --- | --- | --- | --- | --- | --- |
| PWP2 (Homo sapiens, UniProt Q15269) | IMP3 (Homo sapiens, UniProt Q9NV31) | cross-linking MS | cell fractions | with: DSSO | – | cross-linked residues | K604 to K165 |
| N#CN1CC[C@@H](C(=O)Nc2nc3c(s2)CN(C(=O)CN=[N+]=[N-])CC3)C1 | ADRA2A (Homo sapiens, UniProt P08913) | binding, radioligand binding | – | – | – | pKi | < 5.00 |
| RBM22 (Homo sapiens, UniProt Q9NW64) | CWC15 (Homo sapiens, UniProt Q9P013) | cross-linking MS | cell fractions | with: DMTMM | – | cross-linked residues | E122 to K18 |
| CCCC(=O)Oc1ccc2[nH]c(C(=O)c3cc4ccccc4[nH]3)cc2c1 | SRPK1 (Homo sapiens, UniProt Q96SB4) | enzyme activity, inhibitor | – | 0.5 µM | baseline: control | remaining activity | 105% |
| HNRNPDL (Homo sapiens, UniProt O14979) | HNRNPK (Homo sapiens, UniProt P61978) | cross-linking MS | cell fractions | with: DSSO | – | cross-linked residues | K311 to K405 |
| PIK3C2B (Homo sapiens, UniProt O00750) | CNGA3 (Homo sapiens, UniProt Q16281) | cross-linking MS | cell fractions | with: DHSO | – | cross-linked residues | E1130 to E292 |

For quick reference, copied from above (other studies, line by line):
| Molecule | target or system | test | test system | setting | how to read | endpoint | result |
| --- | --- | --- | --- | --- | --- | --- | --- |
| PWP2 (Homo sapiens, UniProt Q15269) | IMP3 (Homo sapiens, UniProt Q9NV31) | cross-linking MS | cell fractions | with: DSSO | – | cross-linked residues | K604 to K165 |
| N#CN1CC[C@@H](C(=O)Nc2nc3c(s2)CN(C(=O)CN=[N+]=[N-])CC3)C1 | ADRA2A (Homo sapiens, UniProt P08913) | binding, radioligand binding | – | – | – | pKi | < 5.00 |
